# Measurements gathered from unrelated publications.
# Parts stem from different laboratories: compare values within a part only.

# Sample 1
# Target: Centromere-binding protein 1, full length, His-tagged (CBF1, Saccharomyces cerevisiae, UniProt P17106, residues 1-351)
# Chain of UniProt P17106 (whole entry, looked up): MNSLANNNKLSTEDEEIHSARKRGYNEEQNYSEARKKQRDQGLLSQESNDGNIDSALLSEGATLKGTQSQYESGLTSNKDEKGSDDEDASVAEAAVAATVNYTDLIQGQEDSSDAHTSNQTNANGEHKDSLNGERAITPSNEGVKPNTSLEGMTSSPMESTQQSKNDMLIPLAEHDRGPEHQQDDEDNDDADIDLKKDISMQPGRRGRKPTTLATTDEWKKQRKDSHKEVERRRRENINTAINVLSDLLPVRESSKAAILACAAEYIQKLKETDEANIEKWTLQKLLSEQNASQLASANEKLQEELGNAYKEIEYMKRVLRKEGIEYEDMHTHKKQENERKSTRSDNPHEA
# Method: competition protein-binding microarray
# Molecule type: double-stranded DNA, one strand shown
# Medium: in vitro
# Concentration: 2 µM
# Setting: whole 60-bp probe, lowest competitor level
# Together with: Pho4 competitor, 0.05 µM
# Direction: higher = stronger binding
Sequence,fluorescence intensity
CGTCCTAGTGATTGCTACGTGGGTGCCATGAGGAAGGTCTTGATTCGCTTGACGCTGCTG,91.1 a.u.
CGGGGTTAAGTTTGAATAGTGGGTGGCTTGCAGCAGGTCTTGATTCGCTTGACGCTGCTG,64.3 a.u.
CGGGGTTAAGTTTGGCCAGTGGGTGGCTTGCAGCAGGTCTTGATTCGCTTGACGCTGCTG,59.3 a.u.
ATGCAATTTTTTCACCACGTGCTAATTCTCTTTGTTGTCTTGATTCGCTTGACGCTGCTG,2770 a.u.

# Sample 2
# Target: Histone acetyltransferase KAT6A, winged helix 1, GST fusion (KAT6A, Homo sapiens, UniProt Q92794, residues 1-85)
# Method: protein binding microarray
# Molecule type: double-stranded DNA, one strand shown
# Medium: in vitro
# Concentration: not given
# Setting: 8-mer, flanks averaged, mean of 2 arrays, mostly near background
# Reference: not given
# Direction: higher = stronger binding
# Residues (chain): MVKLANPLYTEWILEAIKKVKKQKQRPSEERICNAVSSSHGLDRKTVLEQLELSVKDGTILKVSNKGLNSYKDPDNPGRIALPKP
Sequence,E-score
ACCCTAGT,-0.239
TATCGAAA,0.00492
CACGGCCC,0.33

# Sample 3
# Target: Sal-like protein 4, full length isoform A (SALL4, Homo sapiens, UniProt Q9UJQ4, residues 1-1053)
# Chain of UniProt Q9UJQ4 (whole entry, looked up): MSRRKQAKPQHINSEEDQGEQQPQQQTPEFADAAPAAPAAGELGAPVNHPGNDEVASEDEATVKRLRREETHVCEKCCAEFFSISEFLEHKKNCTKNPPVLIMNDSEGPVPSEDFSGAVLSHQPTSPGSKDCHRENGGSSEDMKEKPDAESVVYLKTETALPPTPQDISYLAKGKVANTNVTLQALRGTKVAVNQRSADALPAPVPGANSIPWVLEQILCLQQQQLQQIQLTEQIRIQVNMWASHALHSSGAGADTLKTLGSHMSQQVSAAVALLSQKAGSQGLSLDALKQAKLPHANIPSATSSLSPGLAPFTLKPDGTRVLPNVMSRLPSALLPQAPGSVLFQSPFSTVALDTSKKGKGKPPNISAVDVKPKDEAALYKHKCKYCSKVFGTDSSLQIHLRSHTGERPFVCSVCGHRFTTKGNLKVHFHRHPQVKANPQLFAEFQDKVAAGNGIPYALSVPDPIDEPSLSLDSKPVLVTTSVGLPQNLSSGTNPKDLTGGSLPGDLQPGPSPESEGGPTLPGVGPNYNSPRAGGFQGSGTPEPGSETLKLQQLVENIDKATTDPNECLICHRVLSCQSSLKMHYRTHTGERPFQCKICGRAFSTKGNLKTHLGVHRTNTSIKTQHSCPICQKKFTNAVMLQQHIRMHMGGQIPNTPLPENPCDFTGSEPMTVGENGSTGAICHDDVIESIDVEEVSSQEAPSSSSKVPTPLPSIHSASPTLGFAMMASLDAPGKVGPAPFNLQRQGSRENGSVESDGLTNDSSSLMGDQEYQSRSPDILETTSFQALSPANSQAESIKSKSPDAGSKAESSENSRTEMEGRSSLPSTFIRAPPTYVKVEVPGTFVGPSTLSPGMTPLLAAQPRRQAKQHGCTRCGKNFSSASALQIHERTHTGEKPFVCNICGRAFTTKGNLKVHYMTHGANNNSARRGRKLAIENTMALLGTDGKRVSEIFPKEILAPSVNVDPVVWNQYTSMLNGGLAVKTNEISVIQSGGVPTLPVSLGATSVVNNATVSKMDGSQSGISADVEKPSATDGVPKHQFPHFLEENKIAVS
# Method: universal PBM
# Molecule type: double-stranded DNA, one strand shown
# Medium: in vitro
# Concentration: 600 nM
# Setting: 8-mer, flanks averaged, mean of replicates
# Direction: higher = stronger binding
Sequence,E-score
CGAGCGGC,-0.36
AAATTGTA,0.317
CACTAAGG,-0.111

# Single results of other studies
Substance,target,test,test system,setting,how to read,quantity,result
"PhoQ, residues 284 288 289 292 302 303 ASASEQ","PhoP, residues 12 14 15 18 19 TPWTL (Escherichia coli, UniProt P23836)","Sort-seq, item: YFP reporter",E. coli,"PhoQ-PhoP variant library, together with: 10 µM Mg2+","reference: high Mg2+ state, higher = stronger signaling",fold induction,0.949

# Some of these lines once more (sample 3):
Sequence,E-score
AAATTGTA,0.317
CACTAAGG,-0.111
